Assay results from different studies.
Compare with care: the assays were run in different laboratories. pIC50: −log10 of the molar value.

SMILES | effect on | method | concentration | time | notes | endpoint | value
O=S(=O)(Nc1nccs1)c1ccc(N=NN(O)c2ccccc2)cc1 | DPPH scavenging | absorbance | 300 µg/mL |  |  | inhibition | 37.7%
COc1ccc(NC(=O)Cn2cc(COc3ccc(-c4nc5ccccc5c(=O)n4Nc4ccc([N+](=O)[O-])cc4[N+](=O)[O-])cc3OC)nn2)cc1 | DPPH scavenging | absorbance | 100 µM |  |  | inhibition | 12.4%
CCCCCCCCCCCCCCCC1NCCc2cc(O)c(O)cc21 (stereo not shown) | ABTS scavenging |  |  | 10 min | dark | pIC50 | 4.44
O=C1O[C@H]([C@@H](O)CO)C(O)=C1O | DPPH scavenging |  | 250 µg/mL |  |  | inhibition | 62.1%
CCCCCCCCCCCC1NCCc2cc(O)c(O)cc21 (stereo not shown) | ABTS scavenging |  |  | 10 min | dark | pIC50 | 4.91
Cc1ccc(N(O)N=Nc2ccc(S(=O)(=O)Nc3cc(C)on3)cc2)cc1 | DPPH scavenging | absorbance | 120 µg/mL |  |  | inhibition | 22.8%
CCCCCCCCCCCCCCCCCC1NCCc2cc(O)c(O)cc21 (stereo not shown) | ABTS scavenging |  |  | 10 min | dark | pIC50 | 4.61
COc1cc(-c2nc3ccccc3c(=O)n2Nc2ccc([N+](=O)[O-])cc2[N+](=O)[O-])ccc1OCc1cn(CC(=O)Nc2ccccc2)nn1 | DPPH scavenging | absorbance | 100 µM |  |  | inhibition | 16%
CCCN(O)N=Nc1ccc(S(=O)(=O)Nc2nccs2)cc1 | DPPH scavenging | absorbance | 300 µg/mL |  |  | inhibition | 29.2%
COc1ccc(NC(=O)Cn2cc(COc3ccc(-c4nc5ccccc5c(=O)n4Nc4ccc([N+](=O)[O-])cc4[N+](=O)[O-])cc3OC)nn2)c(OC)c1 | DPPH scavenging | absorbance | 100 µM |  |  | inhibition | 24.7%
CCCCCC1NCCc2cc(O)c(O)cc21 (stereo not shown) | ABTS scavenging |  |  | 10 min | dark | pIC50 | 4.28
Cc1noc(NS(=O)(=O)c2ccc(N=NN(O)c3ccccc3)cc2)c1C | DPPH scavenging | absorbance | 300 µg/mL |  |  | inhibition | 30.8%
COc1cc(-c2nc3ccccc3c(=O)n2Nc2ccc([N+](=O)[O-])cc2[N+](=O)[O-])ccc1OCc1cn(CC(=O)Nc2cccc(Cl)c2)nn1 | DPPH scavenging | absorbance | 100 µM |  |  | inhibition | 24.1%

For quick reference, copied from above:
SMILES | effect on | method | concentration | time | notes | endpoint | value
COc1ccc(NC(=O)Cn2cc(COc3ccc(-c4nc5ccccc5c(=O)n4Nc4ccc([N+](=O)[O-])cc4[N+](=O)[O-])cc3OC)nn2)cc1 | DPPH scavenging | absorbance | 100 µM |  |  | inhibition | 12.4%
